# Results from different studies.
# A part holds a random share of what one study measured. ± marks the error that the study gave.

# Sample 1
# Target: Replicase polyprotein 1ab, main protease (rep, Severe acute respiratory syndrome coronavirus 2, UniProt P0DTD1)
# Observed: reporter gene (mKate2)
# Action: inhibitor
# Tested at: 20 µM
Compound,inhibition [%]
Cl[TeH]1(Cl)(Cl)OCCO1,-0.178
O=C(NS(=O)(=O)c1ccc(Br)s1)c1ccc(Cl)cc1Cl,-0.936
O=c1cc(O)c2ccccc2o1,-0.882

# Single results of other studies
Substance,tested on,test,system,conditions,how to read,endpoint,result
YENFNQHEV,,AIM,"peptide, CD8+ T cells from PBMC, human donors","HLA-B*40:01 restricted, unit not given",relative to: positive over tested donors,frequency of responding donors,50
Cn1cnc(Cn2c(=O)[nH]/c(=N\c3cc4cn(C)nc4cc3Cl)n(Cc3cc(F)c(F)cc3F)c2=O)n1,,,"human, mild renal impairment, plasma","oral, 375 mg single dose",,MRT,80.8 h
Nc1ncnc2c([C@@H]3N[C@H](CO)[C@@H](O)[C@H]3O)c[nH]c12,Japanese encephalitis virus,"viral replication, inhibitor",Vero 76,94.7 µM,,inhibition,104%
FGLVAEWFLAYILFT,human CD4 T cells,AIM,peptide,,,responding donors,8%
CC[C@H](C)[C@H](NC(=O)[C@H](CC(C)C)NC(=O)[C@H](Cc1c[nH]c2ccccc12)NC(=O)[C@H](CCC(N)=O)NC(=O)[C@@H](NC(=O)[C@H](Cc1ccccc1)NC(=O)[C@H](C)NC(=O)[C@H](CCCCNC(=O)COCCOCCNC(=O)COCCOCCNC(=O)CC[C@H](NC(=O)CCCCCCCCCCCCCCCCCCC(=O)O)C(=O)O)NC(=O)[C@H](CCC(N)=O)NC(=O)[C@H](C)NC(=O)[C@@H](NC(=O)[C@H](CCCCN)NC(=O)[C@H](CC(=O)O)NC(=O)[C@H](CC(C)C)NC(=O)C(C)(C)NC(=O)[C@@H](NC(=O)[C@H](CO)NC(=O)[C@H](Cc1ccc(O)cc1)NC(=O)[C@H](CC(=O)O)NC(=O)[C@H](CO)NC(=O)[C@@H](NC(=O)[C@H](Cc1ccccc1)NC(=O)[C@@H](NC(=O)CNC(=O)[C@H](CCC(=O)O)NC(=O)C(C)(C)NC(=O)[C@@H](N)Cc1ccc(O)cc1)[C@@H](C)O)[C@@H](C)O)[C@@H](C)CC)[C@@H](C)CC)C(C)C)C(=O)N[C@@H](C)C(=O)NCC(=O)NCC(=O)N1CCC[C@H]1C(=O)N[C@@H](CO)C(=O)N[C@@H](CO)C(=O)NCC(=O)N[C@@H](C)C(=O)N1CCC[C@H]1C(=O)N1CCC[C@H]1C(=O)N1CCC[C@H]1C(=O)N[C@@H](CO)C(N)=O,,,"healthy subjects, single ascending dose","5.0 mg, day 29",,serum ALT,23 ± 10.1 U/L

# Some of these lines once more (sample 1):
Compound,inhibition [%]
O=c1cc(O)c2ccccc2o1,-0.882
